# Published values gathered from unrelated publications.
# Every numbered part comes from another study and shows a few of its results, in no order. Substitutions count along the parent as printed.

# Series 1
# Target: Histone acetyltransferase KAT6A, both winged helices, GST fusion (KAT6A, Homo sapiens, UniProt Q92794, residues 1-181)
# Technique: protein binding microarray
# Molecule type: double-stranded DNA, one strand shown
# Matrix: in vitro
# Tested at: not given
# Notes: 8-mer, flanks averaged, mean of 2 arrays, mostly near background
# Reference: not given
# Reading: higher = stronger binding
# Construct (chain): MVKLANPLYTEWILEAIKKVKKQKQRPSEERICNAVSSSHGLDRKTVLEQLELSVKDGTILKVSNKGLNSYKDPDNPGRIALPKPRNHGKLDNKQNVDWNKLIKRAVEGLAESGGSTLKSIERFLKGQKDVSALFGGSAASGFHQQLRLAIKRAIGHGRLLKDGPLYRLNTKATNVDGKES
Sequence,E-score
TAGATCAA,-0.278
GGACTGCC,0.0109
AGGCGTCA,0.0294
CTCCCGTA,0.205
CTGATCGA,-0.114
AATTAGAG,-0.122
CGGATCCA,0.00293
CTTAAGGC,-0.0301
AGCATGCG,0.169
CCAACCCA,-0.264
CATTGCAC,-0.162
CTTCCAGA,-0.151
TACAAGTA,-0.151
AGGCACTC,-0.15

# Series 2
# Target: Sal-like protein 4, full length isoform B (SALL4, Homo sapiens, UniProt Q9UJQ4-2, residues 1-616)
# Technique: universal PBM
# Molecule type: double-stranded DNA, one strand shown
# Matrix: in vitro
# Tested at: not given
# Notes: 8-mer, flanks averaged, mean of replicates
# Reading: higher = stronger binding
Sequence,E-score
GGTCCCCA,-0.386
ACGACGGC,-0.246
CCAGTTAC,-0.29
ACTAGGTG,-0.112
ATAATGAC,0.112
AGAGCGCG,-0.223
AAATTAGT,0.34
AAATCCGA,0.0232
ACGTTCCC,-0.114
AATTCTGG,0.0812
ACTGTAAT,0.238
ACCTCATC,-0.0863
CCAAGAGA,-0.0673
ACCAAAGT,0.115
GAGGCGTA,0.0493

# Series 3
# Target: CCNE1, cyclin fold, Cln2 fusion (human)
# Technique: yeast growth competition, sequencing
# Matrix: yeast
# Notes: strong parent motif
# Reference: not given
# Reading: higher = stronger binding
# Starting sequence: CDKN1B docking peptide (human); PSACRNLFGPVDH
Variant,normalised enrichment score
PSACRNLEGPVDH [F8E],-0.256
PSACRNLFGPVDN [H13N],2.99
PSACRNLFRPVDH [G9R],0.233
PSACRNLFEPVDH [G9E],1.09
KSACRNLFGPVDH [P1K],4.06
PSACMNLFGPVDH [R5M],0.429
PSACRNLFTPVDH [G9T],1.39
PSACRNFFGPVDH [L7F],0.813

# Mixed results
Substance,target,assay,system,conditions,how to read,endpoint,value
"PhoQ, residues 284 288 289 292 302 303 TLSLKA","PhoP, residues 12 14 15 18 19 NQFFI (Escherichia coli, UniProt P23836)","Sort-seq, measured: YFP reporter",E. coli,"PhoQ-PhoP variant library, added: 10 µM Mg2+","reference: high Mg2+ state, higher = stronger signaling",fold induction,1.85
